Experimental data collected from several papers.
Protocols differ between the studies behind these lines. ± gives the spread as reported.
OPRK1: Kappa-type opioid receptor (OPRK1, Homo sapiens, UniProt P41145)

Amino acid sequences for entries named in this document (tags omitted). Residues count along the entry.
UniProt P41145, whole entry: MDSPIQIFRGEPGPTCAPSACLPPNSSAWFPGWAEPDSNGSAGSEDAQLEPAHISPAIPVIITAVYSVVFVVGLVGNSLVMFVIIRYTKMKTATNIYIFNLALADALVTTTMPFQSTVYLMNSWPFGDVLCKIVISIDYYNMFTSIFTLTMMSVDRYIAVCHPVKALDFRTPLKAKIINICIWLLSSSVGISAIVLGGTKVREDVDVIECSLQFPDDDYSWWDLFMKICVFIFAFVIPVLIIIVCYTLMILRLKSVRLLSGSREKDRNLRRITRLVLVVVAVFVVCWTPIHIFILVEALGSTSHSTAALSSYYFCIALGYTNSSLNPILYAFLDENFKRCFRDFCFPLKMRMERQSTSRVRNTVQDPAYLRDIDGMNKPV
UniProt P21836, whole entry, looked up: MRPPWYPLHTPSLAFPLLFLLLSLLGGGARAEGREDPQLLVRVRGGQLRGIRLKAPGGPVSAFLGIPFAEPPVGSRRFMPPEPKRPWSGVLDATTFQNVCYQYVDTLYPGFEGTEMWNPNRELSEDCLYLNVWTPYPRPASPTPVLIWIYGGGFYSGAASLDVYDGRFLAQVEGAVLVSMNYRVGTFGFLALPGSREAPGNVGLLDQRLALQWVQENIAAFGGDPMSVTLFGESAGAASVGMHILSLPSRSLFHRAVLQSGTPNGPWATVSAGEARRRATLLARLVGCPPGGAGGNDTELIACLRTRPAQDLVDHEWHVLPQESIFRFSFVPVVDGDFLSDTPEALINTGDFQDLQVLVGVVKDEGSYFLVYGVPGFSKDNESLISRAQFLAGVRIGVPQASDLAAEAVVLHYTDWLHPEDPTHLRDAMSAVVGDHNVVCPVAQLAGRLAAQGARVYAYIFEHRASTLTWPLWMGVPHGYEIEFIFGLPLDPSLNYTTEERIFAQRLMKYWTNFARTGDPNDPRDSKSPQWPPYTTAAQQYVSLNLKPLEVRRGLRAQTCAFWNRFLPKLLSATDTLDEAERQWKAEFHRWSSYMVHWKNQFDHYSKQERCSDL
UniProt P22303, 32-614 limits assumed: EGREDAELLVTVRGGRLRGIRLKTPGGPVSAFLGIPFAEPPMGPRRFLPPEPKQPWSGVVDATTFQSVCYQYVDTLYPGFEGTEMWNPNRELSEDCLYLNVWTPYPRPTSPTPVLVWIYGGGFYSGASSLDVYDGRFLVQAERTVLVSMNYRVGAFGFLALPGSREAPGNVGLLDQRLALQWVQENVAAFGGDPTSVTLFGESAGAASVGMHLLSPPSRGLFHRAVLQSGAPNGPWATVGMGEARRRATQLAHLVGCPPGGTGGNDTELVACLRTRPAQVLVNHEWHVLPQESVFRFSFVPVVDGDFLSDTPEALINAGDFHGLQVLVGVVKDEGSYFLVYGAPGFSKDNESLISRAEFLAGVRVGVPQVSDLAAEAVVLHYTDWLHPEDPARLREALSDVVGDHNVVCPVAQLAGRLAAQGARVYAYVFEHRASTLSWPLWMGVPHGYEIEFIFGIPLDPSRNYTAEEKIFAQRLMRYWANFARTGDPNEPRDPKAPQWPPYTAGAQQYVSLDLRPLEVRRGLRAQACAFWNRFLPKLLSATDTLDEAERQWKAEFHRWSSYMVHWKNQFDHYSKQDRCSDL
UniProt Q869C3, whole entry, looked up: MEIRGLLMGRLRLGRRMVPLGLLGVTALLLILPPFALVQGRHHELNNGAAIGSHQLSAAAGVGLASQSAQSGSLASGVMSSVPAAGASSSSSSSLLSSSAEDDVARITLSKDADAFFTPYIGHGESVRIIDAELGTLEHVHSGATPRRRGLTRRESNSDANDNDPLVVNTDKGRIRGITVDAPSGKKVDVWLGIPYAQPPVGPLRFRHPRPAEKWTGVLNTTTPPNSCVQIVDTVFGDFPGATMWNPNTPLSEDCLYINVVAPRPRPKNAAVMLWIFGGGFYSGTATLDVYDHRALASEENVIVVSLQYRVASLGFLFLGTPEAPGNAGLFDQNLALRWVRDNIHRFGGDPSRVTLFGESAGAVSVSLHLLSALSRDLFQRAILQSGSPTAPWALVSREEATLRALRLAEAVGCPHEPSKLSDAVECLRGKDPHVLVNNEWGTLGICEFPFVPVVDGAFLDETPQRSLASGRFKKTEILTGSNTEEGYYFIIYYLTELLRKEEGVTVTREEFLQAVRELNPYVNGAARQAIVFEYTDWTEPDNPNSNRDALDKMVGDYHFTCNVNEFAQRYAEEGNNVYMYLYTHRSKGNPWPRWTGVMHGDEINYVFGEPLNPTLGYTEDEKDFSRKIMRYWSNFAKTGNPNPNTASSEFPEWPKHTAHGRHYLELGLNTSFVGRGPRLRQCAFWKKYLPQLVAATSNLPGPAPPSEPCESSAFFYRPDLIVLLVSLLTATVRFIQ
UniProt P35372, whole entry: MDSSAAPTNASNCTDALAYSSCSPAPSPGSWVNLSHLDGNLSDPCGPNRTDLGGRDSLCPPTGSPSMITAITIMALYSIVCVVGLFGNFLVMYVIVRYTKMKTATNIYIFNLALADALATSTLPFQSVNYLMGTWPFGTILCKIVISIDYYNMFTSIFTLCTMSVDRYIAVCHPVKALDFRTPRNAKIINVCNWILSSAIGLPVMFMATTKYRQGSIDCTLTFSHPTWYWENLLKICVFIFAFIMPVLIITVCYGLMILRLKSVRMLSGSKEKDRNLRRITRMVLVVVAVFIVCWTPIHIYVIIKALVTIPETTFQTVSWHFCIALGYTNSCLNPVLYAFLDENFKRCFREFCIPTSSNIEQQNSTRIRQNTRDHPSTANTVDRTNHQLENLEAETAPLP
UniProt P36544, 23-502 limits assumed: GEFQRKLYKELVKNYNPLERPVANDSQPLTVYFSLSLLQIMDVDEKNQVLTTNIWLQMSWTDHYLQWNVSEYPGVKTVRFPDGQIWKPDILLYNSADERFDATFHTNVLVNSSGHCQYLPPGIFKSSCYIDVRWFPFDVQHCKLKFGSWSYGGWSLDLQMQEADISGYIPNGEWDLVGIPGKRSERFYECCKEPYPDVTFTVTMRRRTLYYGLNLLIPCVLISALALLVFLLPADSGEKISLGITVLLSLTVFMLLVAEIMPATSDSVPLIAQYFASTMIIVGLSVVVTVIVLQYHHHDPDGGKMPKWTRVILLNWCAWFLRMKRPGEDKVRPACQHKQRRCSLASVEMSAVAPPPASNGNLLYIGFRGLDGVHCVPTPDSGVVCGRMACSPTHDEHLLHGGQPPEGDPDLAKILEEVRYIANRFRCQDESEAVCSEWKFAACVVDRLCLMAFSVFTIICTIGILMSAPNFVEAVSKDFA
UniProt P41146, whole entry: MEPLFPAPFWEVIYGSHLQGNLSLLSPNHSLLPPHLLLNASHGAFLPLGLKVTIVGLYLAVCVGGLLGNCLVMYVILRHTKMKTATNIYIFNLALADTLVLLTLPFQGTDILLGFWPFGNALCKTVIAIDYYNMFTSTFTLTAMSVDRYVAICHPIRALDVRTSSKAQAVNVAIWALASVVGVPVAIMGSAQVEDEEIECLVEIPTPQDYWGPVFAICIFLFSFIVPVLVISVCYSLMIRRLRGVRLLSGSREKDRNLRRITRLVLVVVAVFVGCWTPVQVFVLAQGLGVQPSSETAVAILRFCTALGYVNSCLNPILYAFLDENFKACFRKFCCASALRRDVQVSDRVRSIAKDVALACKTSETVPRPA
UniProt P23953, whole entry, looked up: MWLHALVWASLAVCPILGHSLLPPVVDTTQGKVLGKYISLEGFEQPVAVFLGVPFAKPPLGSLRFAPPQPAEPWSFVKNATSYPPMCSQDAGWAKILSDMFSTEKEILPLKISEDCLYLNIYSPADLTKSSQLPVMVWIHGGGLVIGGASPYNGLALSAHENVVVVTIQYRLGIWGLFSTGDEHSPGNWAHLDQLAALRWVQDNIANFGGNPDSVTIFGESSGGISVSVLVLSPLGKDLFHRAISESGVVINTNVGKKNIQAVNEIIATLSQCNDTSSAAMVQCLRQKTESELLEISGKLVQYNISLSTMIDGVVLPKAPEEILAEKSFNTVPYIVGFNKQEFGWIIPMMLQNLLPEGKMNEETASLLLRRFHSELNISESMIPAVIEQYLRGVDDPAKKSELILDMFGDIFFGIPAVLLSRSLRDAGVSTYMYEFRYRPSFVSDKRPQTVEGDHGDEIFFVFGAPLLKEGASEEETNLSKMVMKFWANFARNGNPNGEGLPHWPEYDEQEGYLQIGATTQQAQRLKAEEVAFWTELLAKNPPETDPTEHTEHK
UniProt P02768, 25-609 limits assumed: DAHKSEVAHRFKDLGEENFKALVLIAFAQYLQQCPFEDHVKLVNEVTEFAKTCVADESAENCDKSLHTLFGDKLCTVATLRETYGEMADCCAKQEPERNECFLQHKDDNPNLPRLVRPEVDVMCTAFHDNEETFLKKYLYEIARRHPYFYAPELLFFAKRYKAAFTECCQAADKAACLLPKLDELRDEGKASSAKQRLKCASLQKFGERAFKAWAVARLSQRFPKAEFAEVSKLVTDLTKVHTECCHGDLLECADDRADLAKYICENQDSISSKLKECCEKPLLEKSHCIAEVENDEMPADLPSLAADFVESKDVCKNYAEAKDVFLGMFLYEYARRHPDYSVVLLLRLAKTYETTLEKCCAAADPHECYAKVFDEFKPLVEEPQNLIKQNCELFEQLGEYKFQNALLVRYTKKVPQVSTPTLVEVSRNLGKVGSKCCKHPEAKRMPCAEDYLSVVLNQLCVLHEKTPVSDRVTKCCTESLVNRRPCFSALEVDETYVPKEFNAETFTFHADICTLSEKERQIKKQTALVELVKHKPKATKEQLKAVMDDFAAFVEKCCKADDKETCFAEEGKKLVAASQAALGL
UniProt Q03311, whole entry, looked up: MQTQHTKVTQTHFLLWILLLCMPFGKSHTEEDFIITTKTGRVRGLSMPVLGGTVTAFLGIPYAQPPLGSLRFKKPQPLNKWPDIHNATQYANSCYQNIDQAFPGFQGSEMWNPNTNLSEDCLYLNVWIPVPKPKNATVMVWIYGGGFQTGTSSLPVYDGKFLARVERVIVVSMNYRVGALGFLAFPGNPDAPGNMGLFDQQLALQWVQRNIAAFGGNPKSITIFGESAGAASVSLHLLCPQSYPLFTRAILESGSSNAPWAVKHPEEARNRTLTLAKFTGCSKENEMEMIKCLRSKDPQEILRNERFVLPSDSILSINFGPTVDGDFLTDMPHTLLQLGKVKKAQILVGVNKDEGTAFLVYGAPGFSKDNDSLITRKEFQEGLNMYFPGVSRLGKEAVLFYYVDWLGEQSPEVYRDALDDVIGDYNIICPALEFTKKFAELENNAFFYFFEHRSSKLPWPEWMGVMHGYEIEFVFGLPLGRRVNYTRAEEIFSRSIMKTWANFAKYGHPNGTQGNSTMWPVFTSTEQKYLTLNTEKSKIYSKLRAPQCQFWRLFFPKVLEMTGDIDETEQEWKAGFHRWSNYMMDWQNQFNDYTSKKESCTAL

Substance | tested on | assay | test system | setting | how to read | endpoint | value
CCOP(=S)(OCC)Oc1ccc([N+](=O)[O-])cc1 | Acetylcholinesterase (Ache, Mus musculus, UniProt P21836) | – | ES1-/- mice, plasma | subcutaneous, 12.5 mg/kg, 6.0 h, toxicant challenge | – | inhibition | 73%
CC(C)OP(=S)(OC(C)C)SCCNS(=O)(=O)c1ccccc1 | Acetylcholinesterase (ACHE, Homo sapiens, UniProt P22303) | enzyme activity, inhibitor, fluorescence | – | rat liver microsomes with NADPH | – | IC50 | inactive
CCOP(=O)(OCC)Oc1ccc([N+](=O)[O-])cc1 | Acetylcholinesterase (Ace, Anopheles gambiae, UniProt Q869C3) | enzyme inhibition, inhibitor | – | – | – | k2 | 0.79 ± 0.07 min⁻¹
O=C1c2c(O)c(=O)ccn2N([C@@H]2c3ccccc3SCc3c2ccc(F)c3F)[C@@H]2COCCN12 | RNA-directed RNA polymerase L, endonuclease domain (Dabie bandavirus, UniProt I0DF35, T128S) | protein thermostability, thermal shift | – | with: Mn2+ | baseline: IAV endonuclease over SFTSV endonuclease | stabilization ratio | ~2 fold
Cc1cc2c(-c3ccco3)cnc(N[C@H]3CCN(C)C[C@@H]3C(=O)NC3CCCCC3)c2[nH]c1=O | Mu-type opioid receptor (OPRM1, Homo sapiens, UniProt P35372) | binding, radioligand binding | – | 10 µM | – | inhibition | 24.3%
C[C@@H]1NC(=O)[C@H](CCCNC(=N)N)NC(=O)[C@H](CCCNC(=N)N)NC(=O)[C@H](CCCNC(=N)N)NC(=O)[C@H](CO)NC(=O)[C@@H]2CSSC[C@H](NC(=O)CN)C(=O)N[C@@H](CSSC[C@@H](C(N)=O)NC(=O)[C@H](CO)NC(=O)[C@H](CCCNC(=N)N)NC1=O)C(=O)N[C@@H](CO)C(=O)N[C@@H](Cc1c[nH]cn1)C(=O)N1CCC[C@H]1C(=O)N[C@@H](C)C(=O)N2 | Neuronal acetylcholine receptor subunit alpha-7 (CHRNA7, Homo sapiens, UniProt P36544) | ion current, antagonist | Xenopus oocytes | 10 µM, 5 min, with: acetylcholine | baseline: control | remaining response | 1.4 ± 1.8%
CCC1C(=O)N(C2CCN([C@H]3CC[C@@H]4CCCc5cccc3c54)CC2)c2ccccc21 (relative stereo) | OPRK1 | radioligand displacement | – | with: tritiated U-69593 | – | Ki | 0.152 ± 0.0257 µM
CNC(=O)ON=C(C)SC | Acetylcholinesterase (Cavia porcellus, UniProt D3YE96) | Ellman | – | – | – | IC95 | 174 µM
O=C(CCc1ccc(O)cc1)N[C@@H](COC(=O)c1ccccc1)C(=O)NC1CCCCC1 | Replicase polyprotein 1ab, 3C-like proteinase (rep, Severe acute respiratory syndrome-related coronavirus, UniProt P0C6X7, R3428I) | inhibitor | – | concentration not given | – | enzyme activity | inactive
CN(C)[C@]1(c2ccccc2)CC[C@]2(CC1)OCCc1c3cc(F)ccc3[nH]c12 | Nociceptin receptor (OPRL1, Homo sapiens, UniProt P41146) | cAMP, agonist | – | human receptor | – | Emax | 95.9 ± 0.9%
NC12CC3CC(CC(C3)C1)C2 | Influenza A virus | viral replication, plaque size reduction | MDCK, A/Swine/Indiana/29-0408/2010 (H1N2) | – | – | EC50 | 58.4 ± 2.5 µM
CCOP(=O)(OCC)Oc1ccc([N+](=O)[O-])cc1 | Ces1c (Mus musculus, UniProt P23953) | enzyme activity, alpha-naphthyl acetate hydrolysis | ES1+/+ mice, plasma | subcutaneous, 0.2 mg/kg, 24 h, toxicant challenge | baseline: baseline | remaining activity | 60%
CO[C@]12CC[C@@]3(C[C@@H]1[C@@](C)(O)c1ccccn1)[C@H]1Cc4ccc(O)c5c4[C@@]3(CCN1CC1CC1)[C@H]2O5 | OPRK1 | G-protein activation, agonist | – | 10 µM | baseline: U-69593 | stimulation | 39 ± 12%
[3H]diisopropyl fluorophosphate | Albumin (ALB, Homo sapiens, UniProt P02768) | – | – | 19 µM, 1 h | baseline: commercial over native human albumin | binding stoichiometry increase | ~5 fold
CNC(=O)Oc1cccc2c1OC(C)(C)C2 | Cholinesterase (Bche, Mus musculus, UniProt Q03311) | – | ES1-/- mice, plasma | subcutaneous, 1.0 mg/kg, 0.5 h, toxicant challenge | – | inhibition | 28.9 ± 2.1%
Nc1nc2nc(C(=O)NCc3ccccn3)cnc2c(=O)[nH]1 | Ricin, A chain (Ricinus communis, UniProt P02879) | differential scanning fluorimetry | – | 500 µM, pH 7.5, 2 µM protein | – | ΔTm | 1 °C

Excerpt of the above:
Substance | tested on | assay | test system | setting | how to read | endpoint | value
CCOP(=S)(OCC)Oc1ccc([N+](=O)[O-])cc1 | Acetylcholinesterase (Ache, Mus musculus, UniProt P21836) | – | ES1-/- mice, plasma | subcutaneous, 12.5 mg/kg, 6.0 h, toxicant challenge | – | inhibition | 73%
CC(C)OP(=S)(OC(C)C)SCCNS(=O)(=O)c1ccccc1 | Acetylcholinesterase (ACHE, Homo sapiens, UniProt P22303) | enzyme activity, inhibitor, fluorescence | – | rat liver microsomes with NADPH | – | IC50 | inactive
